{"sequences": {"note": "Sequences of proteins named here, by UniProt entry; tags and fusion partners are left off. Residues count along the entry.", "UniProt P53779, 1-422 isoform 2": "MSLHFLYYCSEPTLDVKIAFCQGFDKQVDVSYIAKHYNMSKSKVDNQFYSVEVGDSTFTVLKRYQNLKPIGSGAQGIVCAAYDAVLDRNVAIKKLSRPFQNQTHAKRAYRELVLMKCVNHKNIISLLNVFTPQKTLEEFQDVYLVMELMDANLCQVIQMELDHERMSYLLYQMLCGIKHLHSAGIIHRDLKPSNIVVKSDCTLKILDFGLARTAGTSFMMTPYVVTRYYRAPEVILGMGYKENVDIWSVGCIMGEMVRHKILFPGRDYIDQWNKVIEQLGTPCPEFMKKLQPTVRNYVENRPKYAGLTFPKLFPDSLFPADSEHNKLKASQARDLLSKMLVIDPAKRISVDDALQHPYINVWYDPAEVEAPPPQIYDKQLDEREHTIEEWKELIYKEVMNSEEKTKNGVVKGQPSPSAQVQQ"}, "data": "Results from different studies", "note": "Compare with care: the assays were run in different laboratories. ± marks the error that the study gave."}
{"Compound": "C=CC(=O)N1CCC(c2cc(Nc3cc4n(n3)CCOC4)c3ncnn3c2)C1 (single isomer, unassigned)", "tested on": "PLCgamma2 activation", "assay": "IP1 production, HTRF", "system": "Ramos, BTK knock-out", "setting": "4 h preincubation, added: anti-IgM", "scale": "relative to: Ramos wild type", "measurement": "IC50", "value": "> 1000 nM"}
{"Compound": "CCCC(C(=O)Nc1ccc(Br)cc1)n1nc(C)cc(Cc2cccc(OC)c2)c1=O (racemic)", "tested on": "human formyl peptide receptors", "assay": "calcium mobilization, agonist", "system": "human neutrophils", "measurement": "EC50", "value": "300 nM"}
{"Compound": "COc1cc([C@@H]2c3cc4c(cc3C=C(C=O)[C@H]2C(=O)OCCCn2cnc3c(Cl)ncnc32)OCO4)cc(OC)c1OC", "tested on": "Leishmania infantum", "assay": "Alamar Blue", "system": "HepG2", "scale": "relative to: CC50 HepG2 over EC50 amastigotes", "measurement": "selectivity index", "value": 1.3}
{"Compound": "CC(C)Oc1cc(C(=O)N2CCC(N3CCN(C)CC3)CC2)ccc1Nc1ncc2c(n1)N(C1CCCC1)c1ccccc1C(=O)N2C", "tested on": "ERK5, human", "assay": "autophosphorylation", "system": "HeLa", "setting": "added: EGF", "measurement": "EC50", "value": "32 ± 9 nM"}
{"Compound": "CCOC(=O)C1=CC(C(=O)OCC)(c2ccc(Br)cc2)CCC1=O (stereo not shown)", "tested on": "p38α MAPK human", "scale": "relative to: Ki ERK2 over Ki p38α", "measurement": "selectivity ratio", "value": "~40 fold"}
{"Compound": "COc1ccc2c(c1)S(=O)(=O)N(CCCCCc1ccccc1)C(=O)O2", "tested on": "LYPLA1/2, human", "assay": "enzyme activity, inhibitor, ABPP-SILAC", "system": "HEK cell lysate", "setting": "25 µM", "measurement": "inhibition", "value": "no inhibition"}
{"Compound": "CCN1c2ccccc2C(=O)N(C)c2cnc(Nc3ccc(C(=O)N4CCC(N5CCN(C)CC5)CC4)cc3OC)nc21", "tested on": "ERK5, human", "assay": "autophosphorylation", "system": "HeLa", "setting": "added: EGF", "measurement": "EC50", "value": "22 ± 4 nM"}
{"Compound": "O=C1Nc2cccc(C#CC3(O)CCNCC3)c2/C1=C/c1cc2ccccc2[nH]1", "tested on": "kinase panel majority", "scale": "relative to: panel kinases over TAO3", "measurement": "selectivity ratio", "value": "5 to 10"}
{"Compound": "Cc1ncsc1-c1ccc([C@H](C)NC(=O)[C@@H]2C[C@@H](O)CN2C(=O)[C@@H](NC(=O)CCCCCCC(=O)N2CCN(C[C@]3(C)CCC(c4ccc(Cl)cc4)=C(CN4CCN(c5ccc(C(=O)NS(=O)(=O)c6ccc(N[C@H](CCN7CCOCC7)CSc7ccccc7)c(S(=O)(=O)C(F)(F)F)c6)cc5)CC4)C3)CC2)C(C)(C)C)cc1", "system": "STAM mice NASH-HCC model, liver", "setting": "day 150, treated days 90-150", "measurement": "senescent cell accumulation", "value": "decreased"}
{"Compound": "CCC(C)(C(=O)Nc1ccc(Br)cc1)n1nc(C)cc(Cc2cccc(OC)c2)c1=O (racemic)", "tested on": "human formyl peptide receptors", "assay": "calcium mobilization, agonist", "system": "human neutrophils", "measurement": "EC50", "value": "500 nM"}
{"Compound": "NCc1cccc(C2CCN(C(=O)c3cccc(NC(=O)C(O)C4(O)CCC4)c3)CC2)c1 (racemic)", "tested on": "tryptase, human", "assay": "enzyme activity, inhibitor", "system": "HMC-1, lysate of treated cells", "measurement": "IC50", "value": "21800 nM"}
{"Compound": "O=C(Nc1cccc(F)c1)c1cc(S(=O)(=O)N2CCOCC2)c(Cl)cc1Cl", "tested on": "autotaxin (human)", "assay": "cell invasion", "system": "A2058", "setting": "10 µM, 16 h, added: 0.3 nM autotaxin, 1 µM LPC 18:1", "measurement": "inhibition", "value": "67 ± 14.4%"}
{"Compound": "C/C=C/Cn1c(Cc2cc(OC)c(OC)c(OC)c2)nc2c(N)ncnc21", "tested on": "Hsp90β", "assay": "binding, fluorescence polarization competition", "setting": "added: Cy3B-geldanamycin tracer", "measurement": "Ki", "value": "16900 ± 2200 nM"}
{"Compound": "COC(=O)[C@@]1(C)C=C(C(=O)Nc2cccc(C(=O)NC34CC(Nc5nccc(-c6cccnc6)n5)(C3)C4)c2)C(=O)CC1", "tested on": "Mitogen-activated protein kinase 10 (MAPK10, Homo sapiens, UniProt P53779)", "assay": "enzyme activity, inhibitor", "setting": "8.363e-05 µM", "measurement": "remaining activity", "value": "1.05 fraction of control"}
{"Compound": "CCC[C@H](O)[C@H](NC[C@@H]1Cc2cccc(c2)CCCCc2cc(cc(N(CCC)S(C)(=O)=O)c2)C(=O)N1)C(=O)NCC(C)C", "tested on": "BACE1 and BACE2", "assay": "enzyme activity, inhibitor, fluorogenic peptide substrate", "scale": "relative to: BACE2 Ki over BACE1 Ki", "measurement": "selectivity ratio", "value": "15 fold"}
{"Compound": "C#CCCCN1C(=O)C2(CN2[S+]([O-])C(C)(C)C)c2ccccc21 (stereo not shown)", "tested on": "MYC", "assay": "reporter gene, inhibitor, luciferase reporter", "system": "HEK-293T", "setting": "24 h", "measurement": "EC50", "value": "> 50000 nM"}
{"Compound": "NC(=O)[C@@H]1CCNC(=O)[C@H](CCCNC(=O)c2cnccn2)NC(=O)[C@H](Cc2ccco2)NC(=O)[C@H](CC2CC2)NC(=O)/C=C\\C(=O)N1", "tested on": "Src-family kinases human", "setting": "excluding Fgr", "scale": "relative to: Src over Src-family kinases", "measurement": "selectivity ratio", "value": "> 10 fold"}
{"Compound": "Nc1ncc(-c2ccc3ncnc(N4CCc5cc(F)c(Cl)cc54)c3c2)cn1", "system": "CD1 mouse, plasma", "setting": "intraperitoneal, 50 mg/kg", "measurement": "dose-normalised AUC(0-t)", "value": "790 mg·h/mL"}
{"Compound": "CCOC(=O)C1=C(C)NC2=C(C(=O)CC(C)(C)C2)C1c1ccc(OCC(=O)NN=Cc2cccc(C=O)c2)cc1OCC(=O)NN=Cc1cccc(C=O)c1 (stereo not shown)", "tested on": "Listeria monocytogenes", "system": "NCTC 5348", "setting": "concentration not given, 24 h", "measurement": "inhibition zone diameter", "value": "5.6 ± 0.2 mm"}
{"Compound": "COc1cccc(Cc2cc(C)nn(C(C(=O)Nc3ccc(Br)cc3)C(C)C)c2=O)c1 (racemic)", "tested on": "human formyl peptide receptors", "assay": "calcium mobilization, agonist", "system": "human neutrophils", "measurement": "EC50", "value": "3000 nM"}
{"Compound": "COC(=O)[C@@H]1C(c2nc3cncnc3[nH]2)=Cc2cc3c(cc2[C@H]1c1cc(OC)c(OC)c(OC)c1)OCO3", "tested on": "Leishmania infantum", "assay": "Alamar Blue", "system": "HepG2", "scale": "relative to: CC50 HepG2 over EC50 amastigotes", "measurement": "selectivity index", "value": 2.1}
{"Compound": "O=C(NNC(=S)Nc1cccc(C(F)(F)F)c1)c1cccn1-c1ccc(F)cc1", "tested on": "androgen receptor", "assay": "reporter gene, antagonist", "system": "MDA-kb2", "setting": "20 h, added: DHT 0.2 nM", "measurement": "IC50", "value": "700 nM"}
{"Compound": "CCCCN(CCc1ccc(Cl)c(Cl)c1)C[C@H](O)COc1ccc(NS(C)(=O)=O)cc1", "tested on": "NMDA receptor GluN1/GluN2A/GluN2B", "system": "Xenopus oocytes", "scale": "relative to: acidic over neutral pH", "measurement": "potency ratio", "value": "4.4 fold"}
{"Compound": "Nc1ccc(Cl)c2cccnc12", "tested on": "SIRT1", "assay": "immunoblot", "system": "HUVEC", "setting": "up to 10 µM", "measurement": "acetyl-p53 level", "value": "no effect"}
{"Compound": "COc1cc(C(=O)N2CCC(N3CCN(C)CC3)CC2)ccc1Nc1ncc2c(n1)N(C1CCCC1)c1ccccc1C(=O)N2C", "tested on": "ERK5, human", "assay": "autophosphorylation", "system": "HeLa", "setting": "added: EGF", "measurement": "EC50", "value": "80 ± 20 nM"}
